Published values of several laboratories.
A part holds a random share of what one study measured. Changes are numbered by the printed parent chain.
Sequence of UniProt Q9C8N7 (whole entry, looked up): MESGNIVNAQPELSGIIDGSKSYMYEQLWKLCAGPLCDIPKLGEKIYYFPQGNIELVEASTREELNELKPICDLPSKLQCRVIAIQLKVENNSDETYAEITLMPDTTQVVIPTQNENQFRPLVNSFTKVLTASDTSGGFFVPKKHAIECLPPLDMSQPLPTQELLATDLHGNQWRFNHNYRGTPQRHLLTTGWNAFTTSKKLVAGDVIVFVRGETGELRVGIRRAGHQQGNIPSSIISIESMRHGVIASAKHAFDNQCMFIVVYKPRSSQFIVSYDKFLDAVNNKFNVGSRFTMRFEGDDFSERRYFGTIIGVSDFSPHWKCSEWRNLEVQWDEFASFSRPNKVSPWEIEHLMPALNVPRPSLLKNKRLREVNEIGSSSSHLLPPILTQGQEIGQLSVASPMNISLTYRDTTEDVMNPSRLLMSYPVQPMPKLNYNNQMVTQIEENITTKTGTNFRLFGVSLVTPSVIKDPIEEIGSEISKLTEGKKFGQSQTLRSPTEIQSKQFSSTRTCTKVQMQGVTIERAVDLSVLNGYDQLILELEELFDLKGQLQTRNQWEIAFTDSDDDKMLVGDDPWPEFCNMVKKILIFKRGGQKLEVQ

Series 1
Target: RNA binding protein fox-1 homolog 2, RRM domain, GST-SBP tag (RBFOX2, Homo sapiens, UniProt O43251-10, residues 100-194)
Method: RNA Bind-n-Seq
Molecule type: RNA
Medium: in vitro
Concentration: 365 nM
Notes: natural RNA segment, single round, ends assumed
Reference: no-protein control
Reading: higher = stronger binding
Quantity: RBNS enrichment (R)
Construct (chain): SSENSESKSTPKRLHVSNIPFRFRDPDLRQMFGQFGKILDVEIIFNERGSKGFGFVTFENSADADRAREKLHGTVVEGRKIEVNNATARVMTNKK
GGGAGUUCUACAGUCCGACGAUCGCUAGCUACGAAUUUUUAAAGAAAUACUGUUUAAGUUAGAGAUGGUUUAAAGAAAAAUAGUUCACCAAAAUUUAGUAUUAUAUAGUCUGUAUUGUUUGGUUUCAAGUCUCUGGAAUUCUCGGGUGCCAA: 0.943
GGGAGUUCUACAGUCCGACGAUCUGUAACUGUUUCUUCAACUCUUGCAUCCCUGAAGGGAAGAUGCUCUUGGAUGCACCUGUAAUAUCUUAGUUACUGAAUGGGAAGCUGUAGGGGCCGAGGAGGGCAGAGGGUGGAAUUCUCGGGUGCCAA: 1.7
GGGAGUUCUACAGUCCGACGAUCUAUUGAAUUUAUUUCUUAUUAAAAUAUGUAGUUUUUAAGACUUUUUUUCUGACAGUAUUAUGUAAUUUUUUAGCGUGGGUAGAUGGGAGUGUCGCUUGUAUGUUAUCGUAUGGAAUUCUCGGGUGCCAA: 2.4
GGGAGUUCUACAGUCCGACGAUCAAGAGUUAGACGUUUGUUAUCAUGCCCCAAAAUAGUUUGAGGUAACAUUUUUGGAGGUAGCUUCGUGCAUCAUAAACAACUUUCGUGCUCGUGUCUGACUCGAGCGGUAUUGGAAUUCUCGGGUGCCAA: 0.675
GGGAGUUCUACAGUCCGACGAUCCUCUUUUGUUCAGUACGUGUAACUUGAAGCUAAUUUGUACUACUGGAUAUCUGACUGGAGCCGCAGGUACAGAUCUGUAUUGUUCUUACUGAAACACAGCAUGGAAUUAAUGGAAUUCUCGGGUGCCAA: 1.45
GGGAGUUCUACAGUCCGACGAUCCCCGUAAGUGCCACUAGGAAGGAAACCUCAAAUCCACCUACACUGAACCCAGGAACAUCUACAGCAGUCCCCAGAAAAACAUUCUUUCUGAGGAGGUUUAGGUGAAGUUGUGGAAUUCUCGGGUGCCAA: 0.297
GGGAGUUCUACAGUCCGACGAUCGGGGAGCGGUGGCACUCGUGGGAGGGAGAGGACCCCCGCCCACAUCCUCCUUCCCCAGGACCUGAGCUCCCAGCAUCUGCAGACGACCCCCGCAGCCUUUCCCUCGGACCUGGAAUUCUCGGGUGCCAA: 0.849
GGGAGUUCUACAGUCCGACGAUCUUGGGCAGUGCCUCUGGGCACUAAUGUUCAUUAGUCCAAGUUUUUGAAGAUCUGCACACAGUAAGUGAUCCUCAGAAAUGUCCCUUCCAGCUCACAAACUCAGUUGGCCCUGGAAUUCUCGGGUGCCAA: 0.354

Series 2
Target: Protein C-ets-1 (ETS1, Homo sapiens, UniProt P14921, residues 1-441, K379A, full length assumed)
Sequence of UniProt P14921 (whole entry, unmodified, looked up): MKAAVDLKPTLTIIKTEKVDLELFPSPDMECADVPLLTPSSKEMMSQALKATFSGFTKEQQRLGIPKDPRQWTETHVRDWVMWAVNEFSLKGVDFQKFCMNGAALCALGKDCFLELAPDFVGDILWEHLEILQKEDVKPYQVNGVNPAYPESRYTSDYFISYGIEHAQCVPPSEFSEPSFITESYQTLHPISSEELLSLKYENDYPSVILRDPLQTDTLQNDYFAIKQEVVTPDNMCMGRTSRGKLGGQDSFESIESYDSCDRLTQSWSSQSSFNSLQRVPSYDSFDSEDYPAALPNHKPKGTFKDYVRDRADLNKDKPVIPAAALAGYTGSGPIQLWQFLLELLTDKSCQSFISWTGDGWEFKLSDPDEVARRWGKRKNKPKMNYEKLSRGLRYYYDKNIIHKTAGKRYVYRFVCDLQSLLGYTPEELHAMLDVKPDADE
Method: protein-binding microarray
Molecule type: double-stranded DNA, one strand shown
Medium: in vitro
Concentration: not given
Notes: k-mer, scored over probes, only values ≥0.25
Reading: higher = stronger binding
Quantity: E-score
ATATACAG: 0.297
ATGCCGGC: 0.271
CGGCGCGC: 0.27
ATTTCCTG: 0.279
TGTATAAA: 0.311
CCCGGTAA: 0.384
CGACTACC: 0.25
CCGGCGTA: 0.27

Mixed results
B1: ARF11 500-622 (Arabidopsis thaliana, UniProt Q9ZPY6); chain SPKEQKQQTSTRSRIKVQMQGTAVGRAVDLTLLRSYDELIKELEKMFEIEGELSPKDKWAIVFTDDEGDRMLVGDDPWNEFCKMAKKLFIYPSDEVKKMRSKSLLGDKGTIVNLESDQRTVHV
P1: PafA, mature enzyme, eGFP fusion (Elizabethkingia meningoseptica, UniProt Q9KJX5); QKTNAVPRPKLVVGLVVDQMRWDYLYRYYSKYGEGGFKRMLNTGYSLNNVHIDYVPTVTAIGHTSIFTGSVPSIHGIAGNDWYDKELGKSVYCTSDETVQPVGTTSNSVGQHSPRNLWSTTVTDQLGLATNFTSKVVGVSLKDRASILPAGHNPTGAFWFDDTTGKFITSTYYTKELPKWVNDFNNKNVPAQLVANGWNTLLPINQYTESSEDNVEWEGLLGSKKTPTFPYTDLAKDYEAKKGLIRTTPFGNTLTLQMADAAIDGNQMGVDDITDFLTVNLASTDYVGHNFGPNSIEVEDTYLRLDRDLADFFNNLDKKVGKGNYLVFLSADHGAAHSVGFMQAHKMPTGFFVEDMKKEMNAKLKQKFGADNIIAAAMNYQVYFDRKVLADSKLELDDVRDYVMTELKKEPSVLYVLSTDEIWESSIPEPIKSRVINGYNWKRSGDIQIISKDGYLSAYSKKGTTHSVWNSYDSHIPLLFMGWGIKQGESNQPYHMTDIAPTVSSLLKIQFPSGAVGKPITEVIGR
B1 (ARF11 500-622)  positive tests (ARF22 498-598 (Arabidopsis thaliana, UniProt Q9C8N7); two-hybrid; reference: out of 2 tests, higher = firmer interaction): 0
P1 H337V  oxyanion analog dissociation constant (vanadate, free oxyanion; microfluidic competitive inhibition; in vitro, cell-free expressed; not given, derived from inhibition constants, unchanged parent 676 nM; lower = stronger binding): 714 nM

Repeated from above (series 1):
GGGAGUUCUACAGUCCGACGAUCCUCUUUUGUUCAGUACGUGUAACUUGAAGCUAAUUUGUACUACUGGAUAUCUGACUGGAGCCGCAGGUACAGAUCUGUAUUGUUCUUACUGAAACACAGCAUGGAAUUAAUGGAAUUCUCGGGUGCCAA: 1.45
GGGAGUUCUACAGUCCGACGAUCCCCGUAAGUGCCACUAGGAAGGAAACCUCAAAUCCACCUACACUGAACCCAGGAACAUCUACAGCAGUCCCCAGAAAAACAUUCUUUCUGAGGAGGUUUAGGUGAAGUUGUGGAAUUCUCGGGUGCCAA: 0.297
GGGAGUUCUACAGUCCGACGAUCGGGGAGCGGUGGCACUCGUGGGAGGGAGAGGACCCCCGCCCACAUCCUCCUUCCCCAGGACCUGAGCUCCCAGCAUCUGCAGACGACCCCCGCAGCCUUUCCCUCGGACCUGGAAUUCUCGGGUGCCAA: 0.849
